Published values of several laboratories.
Each line is one published result; not all experiments were run side by side. Numbers after ± are the reported error.
Organism: Plasmodium falciparum

SMILES | effect on | method | strain | time | setting | IC50
CNC(=O)c1ccc(-c2cnn3ccc(C(=O)N(C)c4ccc(C#N)cn4)cc23)cc1 | parasite growth |  | 3D7 |  |  | 5 ± 1 nM
CC(C)(C)OC(=O)CNC(=O)[C@H](CCC(=O)N(O)c1ccc(Br)cc1)NC(=O)CC[C@H](N)C(=O)OC(C)(C)C | blood-stage growth | Giemsa-stained smears | 3D7 | 48 h | asynchronous culture | 35000 nM
CC(=O)O[C@@H]1C[C@H]2C(C)(C)C(=O)C=C[C@]2(C)[C@H]2CC[C@]3(C)C(=CC[C@H]3C3=CC(O)OC3=O)[C@@]21C (stereo partly shown) | cell growth |  | D6 and W2 |  |  | < 2400 nM
COC1=CC(c2ccc[nH]2)=NC1=CN1CCCCC1 | parasite growth | SYBR Green I fluorescence | D6, chloroquine-sensitive |  |  | > 2500 nM
COC(=O)[C@@H]1Cc2c([nH]c3ccccc23)[C@@H](c2cccnc2)N1 | parasite growth |  | 3D7 | 48 h | blood stage | 3.07 µg/mL
c1ccc(CCCNc2ncnc3cc(OCC4CCN(CCNc5cccc6ccccc56)CC4)ccc23)cc1 | parasite growth |  | NF54 |  | blood stage | 392 nM
CCC1=CC(c2ccc[nH]2)=NC1=CNC12CC3CC(CC(C3)C1)C2 | parasite growth | SYBR Green I fluorescence | D6, chloroquine-sensitive |  |  | 2.5 nM
C[N+]1=C2C=C(NCCc3c[nH]c4ccccc34)C(=O)c3[nH]cc(c32)CC1 | parasite growth | SYBR Green I | W2 |  |  | ≤ 31 nM
C[C@@H]1C(=O)O[C@@H](C)/C=C/C=C\[C@@H](C)[C@@H]2C=C[C@@H]3C[C@]4(C)O[C@@H]4[C@@H](C)[C@H]3[C@@H]2C(=O)C(Cl)(Cl)C1=O |  | HRP2 ELISA | 3D7 |  |  | 101 ± 55 nM
COc1cc2nc(N3CCCN(C)CC3)nc(SC3CCN(Cc4ccccc4)CC3)c2cc1OC | parasite growth | SYBR Green I | 3D7 | 3 days |  | 1540 nM
COc1ccc(-c2cccc3ccccc23)c2c1C=NC(C)(C)C2 | parasite growth | SYBR Green | NF54 | 96 h | blood stage | 14500 nM
COc1ccc2c(=O)c3cc(OS(=O)(=O)C(F)(F)F)ccc3[nH]c2c1 | parasite growth | SYBR Green | D6 |  | blood stage | 57.7 nM
N[C@@H](CNC(=O)N[C@@H](CCC(=O)N(O)c1ccc(Br)cc1)C(=O)NCC(=O)O)C(=O)O | blood-stage growth | Giemsa-stained smears | 3D7 | 48 h | synchronous culture | 70000 nM
O=C(C1CCN(c2nnnn2-c2ccccc2)CC1)N1CCc2ccccc2C1 | parasite growth | SYBR Green | 3D7 | 72 h | blood stage | 23000 nM
COc1cc2c3c4c1Oc1cc5c(cc1O4)[C@H](Cc1ccc(OCCCN(C)C)c(c1)Oc1ccc(cc1)C[C@@H]3N(C)CC2)N(C)CC5 | parasite growth | SYBR Green | NF54 | 72 h | blood stage | 130 nM
CC(C)=CCC/C(C)=C/Cc1c(CCC(=O)c2ccc(O)cc2O)ccc(O)c1O | parasite growth |  | 3D7 |  | blood stage | 10400 nM
C1=CC(c2ccc[nH]2)=NC1=CNC12CC3CC(CC(C3)C1)C2 | parasite growth | SYBR Green I fluorescence | D6, chloroquine-sensitive |  |  | 341 nM
N#Cc1c(-c2cccs2)[n+]([O-])c2ccccc2[n+]1[O-] | parasite growth | [3H]hypoxanthine incorporation | 3D7 chloroquine-sensitive |  |  | 2970 ± 330 nM
O=C1c2ccc3c4c(ccc(c24)C(=O)N1CCCn1ccnc1)C(=O)N(CCCn1ccnc1)C3=O | parasite growth | SYBR Green | 3D7 | 72 h | blood stage | 260 nM
C#CCOc1ccc(C=NNC(=N)NN=Cc2ccc(OCC#C)cc2)cc1 | parasite growth | SYBR Green | D6 | 72 h | blood stage | 102 nM
N#Cc1c(-c2cccs2)[n+]([O-])c2ccc(Cl)cc2[n+]1[O-] | parasite growth | [3H]hypoxanthine incorporation | 3D7 chloroquine-sensitive |  |  | 7410 ± 200 nM
Cc1nn(CCO)c2ncc(C(=O)c3cc(Cl)ccc3O)cc12 | parasite growth |  | NF54 | 72 h | blood stage | 6000 nM
Clc1ccc(C2=CC(c3ccc[nH]3)=NC2=CNC23CC4CC(CC(C4)C2)C3)cc1 | parasite growth | SYBR Green I fluorescence | D6, chloroquine-sensitive |  |  | > 250 nM
CC1C=CC=CC(C)C2C=CC3CC(C)(O)C(Cl)C(C)C3C2C(=O)C(Cl)(Cl)C(=O)C(C)C(=O)O1 (stereo not shown) | parasite growth | ELISA | 3D7 |  | blood stage | 21 nM
COc1ccc2c(c1)N(C(=O)C1CCN(c3nnnn3-c3ccccc3)CC1)CCC2 | parasite growth | SYBR Green | 3D7 | 72 h | blood stage | 1200 nM
COc1cccc2c(-c3ccc(O)c4c3CCN=C4)ccc(OC(C)C)c12 | parasite growth | SYBR Green | NF54 | 96 h | blood stage | 517 nM
Clc1ccc2c(c1)nc(N1CCNCC1)n2CC1CCCCC1 | parasite growth |  | NF54 |  | blood stage | 7880 nM
CC1C=CC=CC(C)C2C=CC3CC(C)(O)C(O[N+](=O)[O-])C(C)C3C2C(=O)C(Cl)(Cl)C(=O)C(C)C(=O)O1 (stereo not shown) | parasite growth | ELISA | 3D7 |  | blood stage | 0.9 nM

SMILES | effect on | method | strain | time | setting | IC50
N#Cc1c(-c2ccco2)[n+]([O-])c2ccc(Cl)cc2[n+]1[O-] | parasite growth | [3H]hypoxanthine incorporation | 3D7 chloroquine-sensitive |  |  | 490 ± 280 nM
COc1ccc2c(c1)C1CC(C)(N2)c2c(C)nc3ccc(OC)cc3c21 (stereo not shown) | parasite growth | SYBR Green |  |  | blood stage | 2460 nM
Cc1cc(N2CCC(C#N)(C3(C)CC3)C2=O)cc(C(=O)NCc2cc(F)cc(-c3cnn(C)c3)c2)n1 (racemic) | parasite growth | [3H]hypoxanthine incorporation | NF54 sensitive | 72 h |  | 18 nM
O=C(C1CCN(c2nnnn2-c2cccnc2)CC1)N1CCCc2ccccc21 | parasite growth | SYBR Green | 3D7 | 72 h | blood stage | 2400 nM
CCNCC#CCNc1ccnc2cc(Cl)ccc12 | parasite growth |  | DD2 |  | blood stage | 91 nM
CCCCCCCCCC1CC2CCCC3CC(CCCCCCCCC)NC(=N1)N23 (stereo not shown) | parasite growth | plasmodial LDH | D6 chloroquine-sensitive |  |  | 1390 nM
O=C(C=CC(Cc1ccccc1)Nc1ccnc2cc(Cl)ccc12)NCCN1CCOCC1 (stereo not shown) | parasite growth |  | 3D7 |  | blood stage | 44.9 nM
CCC1=C(C)C(c2ccc[nH]2)=NC1=CNC1CCCCCCC1 | parasite growth | SYBR Green I fluorescence | D6, chloroquine-sensitive |  |  | 111 nM
CN(C)CCN1C(=O)c2ccc3c4c(ccc(c24)C1=O)C(=O)N(c1c2ccccc2nc2ccccc12)C3=O | parasite growth | SYBR Green | 3D7 | 72 h | blood stage | 545 nM
COc1cccc2c(-c3ccc(O)c4c3CC(C)(C)N=C4)ccc(OC(C)C)c12 | parasite growth | SYBR Green | NF54 | 96 h | blood stage | 715 nM
O=[N+]([O-])c1ccc(C(=S)Nc2ccccc2)cc1 | parasite growth | SYBR Green | 3D7 | 96 h | blood stage | 80000 nM
Cc1cc2[nH]c(C(=O)Nc3ccccc3C)c(CN3CCOCC3)c2s1 | growth | [3H]hypoxanthine incorporation | 3D7 | 48 h |  | > 50000 nM
N#Cc1ccc(-n2nnnc2N2CCC(C(=O)N3CCCc4ccccc43)CC2)cc1 | parasite growth | SYBR Green | 3D7 | 72 h | blood stage | 3200 nM
COC1=CC(c2ccc[nH]2)=NC12O[C@@H](C)C[C@@H]1CCCCC(=O)CCc3ccc([nH]3)[C@H]12 (stereo partly shown) | parasite growth |  | D6 |  | blood stage | 138 nM
CNC(=O)CNc1cnc2ccc(-c3ccc(OC)c(OC)c3)cc2n1 | parasite growth |  | 3D7 |  |  | 118 ± 55 nM
COC1=CC(c2ccc[nH]2)=NC1=CNC1CCCCC1 | parasite growth | SYBR Green I fluorescence | D6, chloroquine-sensitive |  |  | 49 nM
CC1=N[C@H](C)Cc2c(-c3ccc(Cl)cc3)ccc(O)c21 | parasite growth | SYBR Green | NF54 | 96 h | blood stage | 21900 nM
C#CCOc1cc(C(=O)C2=C(C)C(=O)c3ccccc3C2=O)ccc1[N+](=O)[O-] | parasite growth | SYBR Green | Dd2 | 72 h | synchronized ring stage | 417 ± 222 nM
O=C(O)[C@@H]1Cc2c([nH]c3ccccc23)[C@@H](c2ccc(Br)cc2Cl)N1 | parasite growth |  | Dd2 | 72 h |  | 320 ± 60 nM
COc1ccc2c(c1)CCCN2C(=O)C1CCN(c2nnnn2-c2ccccc2)CC1 | parasite growth | SYBR Green | 3D7 | 72 h | blood stage | > 25000 nM
Clc1ccc(C2=CC(c3ccc[nH]3)=NC2=CNC2CCCCC2)cc1 | parasite growth | SYBR Green I fluorescence | D6, chloroquine-sensitive |  |  | 1020 nM
N[C@@H](CCC(=O)N[C@@H](CCC(=O)N(O)c1ccc(Br)cc1)C(=O)NCC(=O)O)C(=O)O | blood-stage growth | Giemsa-stained smears | 3D7 | 48 h |  | ~70000 nM
CC1=N[C@H](C)Cc2c(-c3cccc(Cl)c3)ccc(O)c21 | parasite growth | SYBR Green | NF54 | 96 h | blood stage | 1930 nM
CC1C=CC=CC(C)C2C=CC3CC(C)(O)C(O)C(C)C3C2C(=O)C(Cl)(Cl)C(=O)C(C)C(=O)O1 (stereo not shown) | parasite growth | ELISA | 3D7 |  | blood stage | > 2200 nM
C(=NC12CC3CC(CC(C3)C1)C2)c1cc(-c2ccc[nH]2)c[nH]1 | parasite growth | SYBR Green I fluorescence | D6, chloroquine-sensitive |  |  | > 2500 nM
CC(C)(C)OC(=O)CNC(=O)[C@H](CCC(=O)N(O)c1ccc(Br)cc1)NC(=O)NC[C@H](N)C(=O)OC(C)(C)C | blood-stage growth | Giemsa-stained smears | 3D7 | 48 h | synchronous culture | 30000 nM
COc1cc(O)c(-c2ccc(OC)c3c(OC)cc(C)cc23)c2c1[C@H](C)N(C)[C@H](C)C2 | parasite growth |  | NF54 |  | blood stage | 4510 nM

Excerpt of the above:
SMILES | effect on | method | strain | time | setting | IC50
COc1cccc2c(-c3ccc(O)c4c3CC(C)(C)N=C4)ccc(OC(C)C)c12 | parasite growth | SYBR Green | NF54 | 96 h | blood stage | 715 nM
O=C(C1CCN(c2nnnn2-c2cccnc2)CC1)N1CCCc2ccccc21 | parasite growth | SYBR Green | 3D7 | 72 h | blood stage | 2400 nM
COC1=CC(c2ccc[nH]2)=NC1=CNC1CCCCC1 | parasite growth | SYBR Green I fluorescence | D6, chloroquine-sensitive |  |  | 49 nM
Cc1cc(N2CCC(C#N)(C3(C)CC3)C2=O)cc(C(=O)NCc2cc(F)cc(-c3cnn(C)c3)c2)n1 (racemic) | parasite growth | [3H]hypoxanthine incorporation | NF54 sensitive | 72 h |  | 18 nM
COc1cc2nc(N3CCCN(C)CC3)nc(SC3CCN(Cc4ccccc4)CC3)c2cc1OC | parasite growth | SYBR Green I | 3D7 | 3 days |  | 1540 nM
O=C(C=CC(Cc1ccccc1)Nc1ccnc2cc(Cl)ccc12)NCCN1CCOCC1 (stereo not shown) | parasite growth |  | 3D7 |  | blood stage | 44.9 nM
